Experimental data of several laboratories.
Compare with care: the assays were run in different laboratories.
B1: slyD (Escherichia coli, UniProt P0A9K9); sequence looked up; chain MKVAKDLVVSLAYQVRTEDGVLVDESPVSAPLDYLHGHGSLISGLETALEGHEVGDKFDVAVGANDAYGQYDENLVQRVPKDVFMGVDELQVGMRFLAETDQGPVPVEITAVEDDHVVVDGNHMLAGQNLKFNVEVVAIREATEEELAHGHVHGAHDHHHDHDHDGCCGGHGHDHGHEHGGEGCCGGKGNGGCGCH
B2: HIF1A 394-574 (Homo sapiens, UniProt Q16665); sequence looked up; chain PDALTLLAPAAGDTIISLDFGSNDTETDDQQLEEVPLYNDVMLPSPNEKLQNINLAMSPLPTAETPKPLRSSADPALNQEVALKLEPNPESLELSFTMPQIQDQTPSPSDGSTRQSSPEPNSPSEYCFYVDSDMVNEFKLELVEKLFAEDTEAKNPFSTQDTDLDLEMLAPYIPMDDDFQL
B3: Sce (Drosophila melanogaster, UniProt Q9VB08); sequence looked up; chain MTSLDPAPNKTWELSLYELQRKPQEVITDSTEIAVSPRSLHSELMCPICLDMLKKTMTTKECLHRFCSDCIVTALRSGNKECPTCRKKLVSKRSLRADPNFDLLISKIYPSREEYEAIQEKVMAKFNQTQSQQALVNSINEGIKLQSQNRPQRFRTKGGGGGGGGGGNGNGAANVAAPPAPGAPTAVGRNASNQMHVHDTASNDSNSNTNSIDRENRDPGHSGTSAASAITSASNAAPSSSANSGASTSATRMQVDDASNPPSVRSTPSPVPSNSSSSKPKRAMSVLTSERSEESESDSQMDCRTEGDSNIDTEGEGNGELGINDEIELVFKPHPTEMSADNQLIRALKENCVRYIKTTANATVDHLSKYLAMRLTLDLGADLPEACRVLNFCIYVAPQPQQLVILNGNQTLHQVNDKFWKVNKPMEMYYSWKKT
B4: ATG9 1-100 (Saccharomyces cerevisiae, UniProt Q12142); sequence looked up; chain MERDEYQLPNSHGKNTFLSRIFGLQSDEVNPSLNSQEMSNFPLPDIERGSSLLHSTNDSREDVDENDLRVPESDQGTSTEEEDEVDEEQVQAYAPQISDG
B5: mepS (Escherichia coli, UniProt P0AFV4); sequence looked up; chain CSANNTAKNMHPETRAVGSETSSLQASQDEFENLVRNVDVKSRIMDQYADWKGVRYRLGGSTKKGIDCSGFVQRTFREQFGLELPRSTYEQQEMGKSVSRSNLRTGDLVLFRAGSTGRHVGIYIGNNQFVHASTSSGVIISSMNEPYWKKRYNEARRVLSRS
B6: INF2 941-1249 (Homo sapiens, UniProt Q27J81-1); FITC label; sequence looked up; chain KQQLAEEEARRPRGEDGKPVRKGPGKQEEVCVIDALLADIRKGFQLRKTARGRGDTDGGSKAASMDPPRATEPVATSNPAGDPVGSTRCPASEPGLDATTASESRGWDLVDAVTPGPQPTLEQLEEGGPRPLERRSSWYVDASDVLTTEDPQCPQPLEGAWPVTLGDAQALKPLKFSSNQPPAAGSSRQDAKDPTSLLGVLQAEADSTSEGLEDAVHSRGARPPAAGPGGDEDEDEEDTAPESALDTSLDKSFSEDAVTDSSGSGTLPRARGRASKGTGKRRKKRPSRSQEEVPPDSDDNKTKKLCVIQ
B7: YKU70 (Saccharomyces cerevisiae, UniProt P32807); sequence looked up; chain MRSVTNAFGNSGELNDQVDETGYRKFDIHEGILFCIELSETMFKESSDLEYKSPLLEILESLDELMSQLVITRPGTAIGCYFYYCNREDAKEGIYELFPLRDINATFMKKLNDLLEDLSSGRISLYDYFMFQQTGSEKQVRLSVLFTFMLDTFLEEIPGQKQLSNKRVFLFTDIDKPQEAQDIDERARLRRLTIDLFDNKVNFATFFIGYADKPFDNEFYSDILQLGSHTNENTGLDSEFDGPSTKPIDAKYIKSRILRKKEVKRIMFQCPLILDEKTNFIVGVKGYTMYTHEKAGVRYKLVYEHEDIRQEAYSKRKFLNPITGEDVTGKTVKVYPYGDLDINLSDSQDQIVMEAYTQKDAFLKIIGFRSSSKSIHYFNNIDKSSFIVPDEAKYEGSIRTLASLLKILRKKDKIAILWGKLKSNSHPSLYTLSPSSVKDYNEGFYLYRVPFLDEIRKFPSLLSYDDGSEHKLDYDNMKKVTQSIMGYFNLRDGYNPSDFKNPLLQKHYKVLHDYLLQIETTFDENETPNTKKDRMMREDDSLRKLYYIRNKILESEKSEDPIIQRLNKYVKIWNMFYKKFNDDNISIKEEKKPFDKKPKFNI
B8: Spt6 1-335 (Saccharomyces cerevisiae, UniProt P23615); sequence looked up; chain MEETGDSKLVPRDEEEIVNDNDETKAPSEEEEGEDVFDSSEEDEDIDEDEDEARKVQEGFIVNDDDENEDPGTSISKKRRKHKRREREEDDRLSEDDLDLLMENAGVERTKASSSSGKFKRLKRVGDEGNAAESESDNVAASRQDSTSKLEDFFSEDEEEEESGLRNGRNNEYGRDEEDHENRNRTADKGGILDELDDFIEDDEFSDEDDETRQRRIQEKKLLREQSIKQPTQITGLSSDKIDEMYDIFGDGHDYDWALEIENEELENGNDNNEAEEEEIDEETGAIKSTKKKISLQDIYDLEDLKKNLMTEGDMKIRKTDIPERYQELRAGITD
B9: TTC7B (Homo sapiens, UniProt Q86TV6); chain MATKKAGSRLETEIERCRSECQWERIPELVKQLSAKLIANDDMAELLLGESKLEQYLKEHPLRQGASPRGPKPQLTEVRKHLTAALDRGNLKSEFLQESNLIMAKLNYVEGDYKEALNIYARVGLDDLPLTAVPPYRLRVIAEAYATKGLCLEKLPISSSTSNLHVDREQDVITCYEKAGDIALLYLQEIERVILSNIQNRSPKPGPAPHDQELGFFLETGLQRAHVLYFKNGNLTRGVGRFRELLRAVETRTTQNLRMTIARQLAEILLRGMCEQSYWNPLEDPPCQSPLDDPLRKGANTKTYTLTRRARVYSGENIFCPQENTEEALLLLLISESMANRDAVLSRIPEHKSDRLISLQSASVVYDLLTIALGRRGQYEMLSECLERAMKFAFEEFHLWYQFALSLMAAGKSARAVKVLKECIRLKPDDATIPLLAAKLCMGSLHWLEEAEKFAKTVVDVGEKTSEFKAKGYLALGLTYSLQATDASLRGMQEVLQRKALLAFQRAHSLSPTDHQAAFYLALQLAISRQIPEALGYVRQALQLQGDDANSLHLLALLLSAQKHYHDALNIIDMALSEYPENFILLFSKVKLQSLCRGPDEALLTCKHMLQIWKSCYNLTNPSDSGRGSSLLDRTIADRRQLNTITLPDFSDPETGSVHATSVAASRVEQALSEVASSLQSSAPKQGPLHPWMTLAQIWLHAAEVYIGIGKPAEATACTQEAANLFPMSHNVLYMRGQIAELRGSMDEARRWYEEALAISPTHVKSMQRLALILHQLGRYSLAEKILRDAVQVNSTAHEVWNGLGEVLQAQGNDAAATECFLTALELEASSPAVPFTIIPRVL
B10: ND4L 1-89 (Yarrowia lipolytica, UniProt Q9B6D4); sequence looked up; chain MFIGTIILVLSFLGFVFNRRNIILAFICLETMLLGINLILLRNSVLFDDISGSLFAIVIIILAGVESAIGLSLLVSYYRLRGVINSYGI
B11: ATG9 864-997 (Saccharomyces cerevisiae, UniProt Q12142); sequence looked up; chain SFLNNKYSWRKQFQPGQKPELFRIGKHALGPGHNISPAIYSTRNPGKNWDNNNNGDDIKNGTNNATAKNDDNNGNNDHEYVLTESFLDSGAFPNHDVIDHNKMLNSNYNGNGILNKGGVLGLVKEYYKKSDVGR
B12: PSMG3/PSMG4 heterodimer (Homo sapiens); chain 1 MEDTPLVISKQKTEVVCGVPTQVVCTAFSSHILVVVTQFGKMGTLVSLEPSSVASDVSKPVLTTKVLLGQDEPLIHVFAKNLVAFVSQEAGNRAVLLAVAVKDKSMEGLKALREVIRVCQVW; chain 2 MEGLVVAAGGDVSLHNFSARLWEQLVHFHVMRLTDSLFLWVGATPHLRNLAVAMCSRYDSIPVSTSLLGDTSDTTSTGLAQRLARKTNKQVFVSYNLQNTDSNFALLVENRIKEEMEAFPEKF
Sequence of UniProt P42356 (whole entry, looked up): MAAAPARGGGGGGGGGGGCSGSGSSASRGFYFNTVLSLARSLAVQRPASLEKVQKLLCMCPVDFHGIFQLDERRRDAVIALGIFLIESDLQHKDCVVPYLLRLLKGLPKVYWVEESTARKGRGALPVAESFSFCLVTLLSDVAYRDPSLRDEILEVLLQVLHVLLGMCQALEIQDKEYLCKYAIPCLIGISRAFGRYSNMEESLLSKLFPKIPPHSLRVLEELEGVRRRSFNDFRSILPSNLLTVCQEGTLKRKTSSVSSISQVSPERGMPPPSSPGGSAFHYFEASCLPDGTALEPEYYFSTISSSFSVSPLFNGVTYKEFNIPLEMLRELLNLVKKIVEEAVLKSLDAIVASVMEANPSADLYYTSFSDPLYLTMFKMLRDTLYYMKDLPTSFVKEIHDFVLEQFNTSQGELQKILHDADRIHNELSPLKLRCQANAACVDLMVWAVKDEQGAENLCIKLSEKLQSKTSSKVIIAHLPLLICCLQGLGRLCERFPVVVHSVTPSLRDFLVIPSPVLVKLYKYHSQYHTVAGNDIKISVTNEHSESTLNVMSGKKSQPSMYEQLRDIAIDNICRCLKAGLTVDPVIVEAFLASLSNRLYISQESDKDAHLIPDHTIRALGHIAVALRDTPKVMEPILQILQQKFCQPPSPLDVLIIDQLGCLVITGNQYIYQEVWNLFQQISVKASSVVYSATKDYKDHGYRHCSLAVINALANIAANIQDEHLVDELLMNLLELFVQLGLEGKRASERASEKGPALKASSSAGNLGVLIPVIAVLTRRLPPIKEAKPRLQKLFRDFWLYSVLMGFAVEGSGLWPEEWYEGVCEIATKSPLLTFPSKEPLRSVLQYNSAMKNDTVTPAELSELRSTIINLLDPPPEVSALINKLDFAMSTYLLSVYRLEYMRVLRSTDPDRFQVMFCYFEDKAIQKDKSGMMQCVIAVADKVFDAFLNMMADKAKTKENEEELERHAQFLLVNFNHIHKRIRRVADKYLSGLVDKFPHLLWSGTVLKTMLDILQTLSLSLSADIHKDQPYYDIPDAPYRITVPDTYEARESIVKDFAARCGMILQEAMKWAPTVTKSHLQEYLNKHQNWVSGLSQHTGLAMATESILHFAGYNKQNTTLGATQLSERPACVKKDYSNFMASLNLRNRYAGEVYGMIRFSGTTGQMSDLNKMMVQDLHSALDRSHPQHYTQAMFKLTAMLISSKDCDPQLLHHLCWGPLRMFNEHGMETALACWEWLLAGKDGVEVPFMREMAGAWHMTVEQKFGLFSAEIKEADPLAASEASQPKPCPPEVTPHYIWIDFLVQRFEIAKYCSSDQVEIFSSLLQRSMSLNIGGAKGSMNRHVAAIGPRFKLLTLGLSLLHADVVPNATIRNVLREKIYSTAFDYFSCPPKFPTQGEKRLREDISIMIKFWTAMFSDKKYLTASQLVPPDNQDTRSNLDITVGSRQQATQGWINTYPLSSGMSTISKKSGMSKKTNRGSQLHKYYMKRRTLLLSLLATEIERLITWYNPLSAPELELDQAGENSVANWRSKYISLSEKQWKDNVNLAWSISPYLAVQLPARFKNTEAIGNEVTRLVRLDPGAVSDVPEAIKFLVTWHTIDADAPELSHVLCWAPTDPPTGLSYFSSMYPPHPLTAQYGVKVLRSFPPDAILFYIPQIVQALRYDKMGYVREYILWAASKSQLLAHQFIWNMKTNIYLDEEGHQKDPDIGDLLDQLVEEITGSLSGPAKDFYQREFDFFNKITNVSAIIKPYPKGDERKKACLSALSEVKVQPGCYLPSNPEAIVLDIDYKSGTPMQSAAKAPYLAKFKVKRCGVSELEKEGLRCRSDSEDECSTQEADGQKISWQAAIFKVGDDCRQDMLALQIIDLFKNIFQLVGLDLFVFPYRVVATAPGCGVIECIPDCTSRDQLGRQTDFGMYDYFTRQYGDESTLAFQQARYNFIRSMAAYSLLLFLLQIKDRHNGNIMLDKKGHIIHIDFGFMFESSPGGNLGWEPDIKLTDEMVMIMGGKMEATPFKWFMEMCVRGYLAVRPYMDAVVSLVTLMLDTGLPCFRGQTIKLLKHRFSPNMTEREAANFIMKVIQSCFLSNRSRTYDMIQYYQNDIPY
Sequence of UniProt Q9NRZ9 (whole entry, looked up): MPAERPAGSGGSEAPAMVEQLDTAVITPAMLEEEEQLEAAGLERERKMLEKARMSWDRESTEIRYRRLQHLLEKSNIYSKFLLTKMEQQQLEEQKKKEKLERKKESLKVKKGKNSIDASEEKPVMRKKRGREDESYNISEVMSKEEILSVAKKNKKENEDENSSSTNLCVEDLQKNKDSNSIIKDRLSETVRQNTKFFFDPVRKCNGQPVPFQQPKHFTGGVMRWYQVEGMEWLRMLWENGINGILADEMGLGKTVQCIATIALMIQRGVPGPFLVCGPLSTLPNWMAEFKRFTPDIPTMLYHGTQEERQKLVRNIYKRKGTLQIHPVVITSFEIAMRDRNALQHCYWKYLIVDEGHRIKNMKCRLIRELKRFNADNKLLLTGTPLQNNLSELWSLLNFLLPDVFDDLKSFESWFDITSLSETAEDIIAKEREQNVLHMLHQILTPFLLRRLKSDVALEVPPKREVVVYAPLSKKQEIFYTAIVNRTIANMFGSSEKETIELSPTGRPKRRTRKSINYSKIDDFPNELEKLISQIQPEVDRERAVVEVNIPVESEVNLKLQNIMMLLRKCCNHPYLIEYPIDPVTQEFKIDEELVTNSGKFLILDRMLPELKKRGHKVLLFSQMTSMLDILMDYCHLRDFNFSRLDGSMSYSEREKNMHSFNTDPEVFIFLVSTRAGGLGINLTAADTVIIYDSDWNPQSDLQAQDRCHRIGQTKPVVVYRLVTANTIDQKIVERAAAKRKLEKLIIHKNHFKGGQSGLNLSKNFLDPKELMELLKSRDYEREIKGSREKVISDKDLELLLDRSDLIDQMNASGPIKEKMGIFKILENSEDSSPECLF
Sequence of UniProt P57768 (whole entry, looked up): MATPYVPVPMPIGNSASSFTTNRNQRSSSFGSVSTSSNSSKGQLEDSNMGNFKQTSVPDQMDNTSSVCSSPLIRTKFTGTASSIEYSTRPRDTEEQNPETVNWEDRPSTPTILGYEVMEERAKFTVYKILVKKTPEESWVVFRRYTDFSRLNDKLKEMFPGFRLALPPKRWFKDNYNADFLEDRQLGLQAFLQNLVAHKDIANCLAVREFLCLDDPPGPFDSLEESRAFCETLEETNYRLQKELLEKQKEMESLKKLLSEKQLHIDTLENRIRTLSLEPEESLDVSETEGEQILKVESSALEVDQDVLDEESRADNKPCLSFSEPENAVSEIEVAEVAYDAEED
Sequence of UniProt Q9B6C7 (whole entry, looked up): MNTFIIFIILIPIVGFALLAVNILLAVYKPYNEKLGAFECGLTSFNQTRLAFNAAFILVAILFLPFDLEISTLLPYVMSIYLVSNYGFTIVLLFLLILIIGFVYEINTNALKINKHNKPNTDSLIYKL
Sequence of UniProt Q9AXT8 (whole entry, looked up): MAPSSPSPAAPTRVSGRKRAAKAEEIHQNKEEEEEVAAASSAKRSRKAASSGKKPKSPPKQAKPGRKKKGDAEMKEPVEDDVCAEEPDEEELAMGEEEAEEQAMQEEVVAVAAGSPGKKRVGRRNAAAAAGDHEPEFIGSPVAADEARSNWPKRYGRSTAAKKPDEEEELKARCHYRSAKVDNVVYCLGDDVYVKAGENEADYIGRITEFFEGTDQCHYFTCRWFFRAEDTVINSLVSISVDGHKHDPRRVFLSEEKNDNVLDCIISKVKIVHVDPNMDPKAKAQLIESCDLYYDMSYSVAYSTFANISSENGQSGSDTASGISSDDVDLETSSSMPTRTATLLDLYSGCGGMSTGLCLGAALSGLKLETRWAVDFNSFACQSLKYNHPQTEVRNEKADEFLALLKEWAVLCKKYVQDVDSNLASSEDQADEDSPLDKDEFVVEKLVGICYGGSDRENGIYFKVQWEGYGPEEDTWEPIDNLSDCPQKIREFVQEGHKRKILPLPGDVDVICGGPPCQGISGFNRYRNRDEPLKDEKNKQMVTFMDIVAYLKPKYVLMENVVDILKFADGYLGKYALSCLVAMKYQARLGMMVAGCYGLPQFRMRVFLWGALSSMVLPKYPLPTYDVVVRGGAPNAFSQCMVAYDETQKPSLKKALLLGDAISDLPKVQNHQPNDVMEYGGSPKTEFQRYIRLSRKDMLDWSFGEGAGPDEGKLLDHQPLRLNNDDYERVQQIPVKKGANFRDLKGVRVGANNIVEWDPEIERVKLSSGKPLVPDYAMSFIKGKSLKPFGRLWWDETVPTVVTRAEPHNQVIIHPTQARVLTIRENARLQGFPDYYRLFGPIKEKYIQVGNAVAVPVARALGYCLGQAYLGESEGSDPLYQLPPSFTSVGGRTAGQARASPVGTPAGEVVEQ
Sequence of UniProt Q04437 (whole entry, looked up): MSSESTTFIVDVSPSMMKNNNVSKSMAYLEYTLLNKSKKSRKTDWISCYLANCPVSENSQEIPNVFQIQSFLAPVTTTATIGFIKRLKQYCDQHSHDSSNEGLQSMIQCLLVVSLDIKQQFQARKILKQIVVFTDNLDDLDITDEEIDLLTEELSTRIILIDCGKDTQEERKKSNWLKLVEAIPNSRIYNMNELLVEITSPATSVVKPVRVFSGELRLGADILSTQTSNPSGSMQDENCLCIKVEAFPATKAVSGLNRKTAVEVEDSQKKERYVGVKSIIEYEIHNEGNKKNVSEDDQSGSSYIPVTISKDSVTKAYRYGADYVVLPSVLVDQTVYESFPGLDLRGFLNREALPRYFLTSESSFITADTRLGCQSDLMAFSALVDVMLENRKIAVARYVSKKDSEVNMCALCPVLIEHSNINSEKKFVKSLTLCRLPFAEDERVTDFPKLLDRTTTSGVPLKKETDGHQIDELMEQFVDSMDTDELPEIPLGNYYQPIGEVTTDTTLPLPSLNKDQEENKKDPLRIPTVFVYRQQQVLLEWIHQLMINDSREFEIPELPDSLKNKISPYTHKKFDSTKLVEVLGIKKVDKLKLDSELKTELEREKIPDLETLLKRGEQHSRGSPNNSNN

| Molecule | partner | assay | test system | setting | binding |
| --- | --- | --- | --- | --- | --- |
| B1 (slyD) | hypB monomeric variant 2-290 L242A/L246A (Escherichia coli, UniProt P0AAN3) | SEC | – | – | binds |
| B2 (HIF1A 394-574) | EGLN1 181-426 (Homo sapiens, UniProt Q9GZT9) | NMR titration | – | – | binds |
| B3 (Sce) | Psc (Drosophila melanogaster, UniProt P35820) | co-IP | – | – | binds |
| B4 (ATG9 1-100) | ATG23 full-length, dimer (Saccharomyces cerevisiae, UniProt Q06671) | pull-down | – | 15 minutes, 4 °C | binds |
| B5 (mepS) | nlpI (Escherichia coli, UniProt P0AFB1) | pull-down | – | – | binds |
| B6 (INF2 941-1249) | INF2 fragment (Homo sapiens) | fluorescence polarisation | – | apparent | binds |
| ARTKQTARCSTGGKAPRKQLATKAARKSAPAT (H3C1 2-33 K9C (UniProt P68431); alkylated Cys9, dimethyl-lysine analog; sequence looked up) | ZMET2 130-912, 5-fluorocytosine DNA crosslink (Zea mays, UniProt Q9AXT8) | crystal structure | peptide | – | binds |
| B7 (YKU70) | YKU80 (Saccharomyces cerevisiae, UniProt Q04437) | cryo-EM structure | – | – | binds |
| B8 (Spt6 1-335) | SPN1 (Saccharomyces cerevisiae, UniProt Q06505) | NMR titration | – | – | binds |
| ARTKQTARKSTGGKAY (histone H3 residues 1-15; K9me3) | ATRX 1-321 H189N (Homo sapiens, UniProt P46100) | ITC | peptide | 25 °C | binds |
| B9 (TTC7B) | PI4KA (Homo sapiens, UniProt P42356) | cryo-EM | – | – | binds |
| KESALRKQDLILLFDPLLR (TACC3 to 568 550-568 S558D/Y560I/K562L (Homo sapiens, UniProt Q9Y6A5); sequence looked up) | CLTC 358-574 (Homo sapiens, UniProt Q00610) | peptide array | peptide | – | binds |
| B10 (ND4L 1-89) | ND3 1-128 (Yarrowia lipolytica, UniProt Q9B6C7) | cryo-EM | – | – | binds |
| SNX16 (Homo sapiens, UniProt P57768) | SNX4 (Homo sapiens, UniProt O95219) | pull-down | – | – | binds |
| VRKKRGRPMTKN (SPINDOC 228-239 (Homo sapiens, UniProt Q9BUA3)) | SPIN1 50-262 (Homo sapiens, UniProt Q9Y657) | NMR titration | peptide | – | binds |
| B11 (ATG9 864-997) | ATG23 A34E (UniProt Q06671) | pull-down | – | 2 µM | binds |
| VGSPKNAVPPC (IL1RAP 234-243 (Homo sapiens); cyclic, C-terminal amide, acetylated N-terminus) | IL1RL1/IL33 ST2 , IL-33 19-328 | pull-down | peptide | – | binds |
| CDCA7 (Homo sapiens, UniProt Q9BWT1) | HELLS 1-814 (Homo sapiens, UniProt Q9NRZ9) | SEC | – | – | binds |
| B12 (PSMG3/PSMG4 heterodimer) | PSMA3 (Homo sapiens, UniProt P25788) | cryo-EM | – | – | binds |
| PIP5K1C (Homo sapiens, UniProt O60331-3) | STAT1 (Homo sapiens, UniProt P42224) | solid-phase binding | – | – | binds |

Excerpt of the above:
| Molecule | partner | assay | test system | setting | binding |
| --- | --- | --- | --- | --- | --- |
| VGSPKNAVPPC (IL1RAP 234-243 (Homo sapiens); cyclic, C-terminal amide, acetylated N-terminus) | IL1RL1/IL33 ST2 , IL-33 19-328 | pull-down | peptide | – | binds |
| B9 (TTC7B) | PI4KA (Homo sapiens, UniProt P42356) | cryo-EM | – | – | binds |
| B2 (HIF1A 394-574) | EGLN1 181-426 (Homo sapiens, UniProt Q9GZT9) | NMR titration | – | – | binds |
